Assay results pooled from the literature.
Each line is one published result; not all experiments were run side by side. Several values in a cell are separate wells, animals, samples, runs or records.
ALK: ALK tyrosine kinase receptor (ALK, Homo sapiens, UniProt Q9UM73)

O=C(O)CCC(=O)c1cccc(NS(=O)(=O)c2c[nH]c3ncccc23)c1 has a remaining activity of 98% (ALK; kinase activity, radiometric; 10 µM).
C=CC(=O)N1Cc2nc(-c3cc(-c4cc(Cl)cnc4Cl)c(F)cc3F)n(-c3ccncn3)c2C1 has an inhibition of 2.4% (ALK; cell-free assay; 1 µM).
NC(=O)C[C@H]1CCc2sc3ncnc(O[C@H]4CC[C@H](N5CCOCC5)CC4)c3c21 gave an inhibition of 22% (ALK; enzyme activity, inhibitor; 10 µM).
The remaining activity of COc1c(OCCCN2CCOCC2)ccc2c1N=C(NC(=O)c1cnc(N)nc1)N1CCN=C21 is reported as 124% (ALK; kinase activity, inhibitor; 1 µM; relative to: untreated control).
O=C(Nc1ccc(Oc2ncnc3[nH]cc(-c4ccccc4)c23)c(F)c1)c1c2n(n(-c3cc(F)ccc3F)c1=O)CCCC2 has an inhibition of 23% (ALK; enzyme activity, inhibitor; 0.5 µM).
With COc1cc(Nc2nccc(-c3cnn4nc(OC)ccc34)n2)cc(C(F)(F)F)c1 the remaining binding was 100% (ALK (Homo sapiens, UniProt Q9UM73, C1156Y); binding; 1 µM).
The remaining activity of COc1ccc(NC(=O)Nc2ccc3c(c2)C(=O)N(C(C)CO)CC(C)C(CN(C)Cc2ccc4c(c2)OCO4)O3)cc1 (stereo not drawn) is reported as 91% (ALK; kinase activity, KinaseProfiler; 0.03 µM, species human; relative to: control).
With COCC12C(=O)NC3C4(C(OC)CC1O)C1CC5(O)C(OC)C(O)C(OC(C)=O)(C1C5OC(=O)c1ccccc1)C3(O)C(OC)C24 (stereo not drawn) the remaining activity was 101% and 97% (ALK; kinase activity, inhibitor, ProQinase kinase profiling; 25 µM; relative to: control).
For Cc1cccc(O[C@H]2CCC[C@@H](C(C)CNCc3ccncc3)C2)c1 (relative stereo), the inhibition was -5% (ALK; cell-free assay; 10 µM).
C=C1CCCCCCCCCC(CO)C1=O (stereo not drawn) gave a remaining signal of 100% (ALK; cell-free assay; 10 µM).
For C=CC(=O)Nc1cccc(-c2cnc3[nH]cc(C(=O)NC(C)(C)C)c3n2)c1, the inhibition was 11% (ALK; enzyme activity, inhibitor; 0.1 µM).
The inhibition of CCn1cc(C(=O)O)c(=O)c2c(N)c(F)c(NC3CCCCC3)cc21 is reported as 1.7% (ALK; kinase activity; 0.1 µM, with: ATP at Km).

A few entries again:
For C=CC(=O)Nc1cccc(-c2cnc3[nH]cc(C(=O)NC(C)(C)C)c3n2)c1, the inhibition was 11% (ALK; enzyme activity, inhibitor; 0.1 µM).
